{"data": "Experimental data gathered from unrelated publications", "note": "± gives the spread as reported."}
{"SMILES": "C[C@H]1CN(C(=O)CC#N)[C@]12CCN(c1ncnc3[nH]ccc13)C2", "system": "healthy human", "setting": "oral, 3 mg single", "quantity": "subjects with positive SARS-CoV-2 test", "result": "0%"}
{"SMILES": "O=C[C@H](C[C@@H]1CCNC1=O)NC(=O)[C@H](CC1CCCCC1)NC(=O)c1cc2ccccc2[nH]1", "system": "rats, plasma", "setting": "intravenous, 8 mg/kg", "quantity": "AUC", "result": "8890 ng·h/mL"}
{"SMILES": "Nc1ncnc2c([C@@H]3N[C@H](CO)[C@@H](O)[C@H]3O)c[nH]c12", "tested on": "Marburg marburgvirus", "assay": "virus production", "system": "HeLa, Musoke", "setting": "0.4 µM", "quantity": "supernatant virus titre", "result": "7.8e+06 PFU/mL"}
{"SMILES": "CC[C@H](C)[C@H](NC(=O)[C@H](CC(C)C)NC(=O)[C@H](Cc1c[nH]c2ccccc12)NC(=O)[C@H](CCC(N)=O)NC(=O)[C@@H](NC(=O)[C@H](Cc1ccccc1)NC(=O)[C@H](C)NC(=O)[C@H](CCCCNC(=O)COCCOCCNC(=O)COCCOCCNC(=O)CC[C@H](NC(=O)CCCCCCCCCCCCCCCCCCC(=O)O)C(=O)O)NC(=O)[C@H](CCC(N)=O)NC(=O)[C@H](C)NC(=O)[C@@H](NC(=O)[C@H](CCCCN)NC(=O)[C@H](CC(=O)O)NC(=O)[C@H](CC(C)C)NC(=O)C(C)(C)NC(=O)[C@@H](NC(=O)[C@H](CO)NC(=O)[C@H](Cc1ccc(O)cc1)NC(=O)[C@H](CC(=O)O)NC(=O)[C@H](CO)NC(=O)[C@@H](NC(=O)[C@H](Cc1ccccc1)NC(=O)[C@@H](NC(=O)CNC(=O)[C@H](CCC(=O)O)NC(=O)C(C)(C)NC(=O)[C@@H](N)Cc1ccc(O)cc1)[C@@H](C)O)[C@@H](C)O)[C@@H](C)CC)[C@@H](C)CC)C(C)C)C(=O)N[C@@H](C)C(=O)NCC(=O)NCC(=O)N1CCC[C@H]1C(=O)N[C@@H](CO)C(=O)N[C@@H](CO)C(=O)NCC(=O)N[C@@H](C)C(=O)N1CCC[C@H]1C(=O)N1CCC[C@H]1C(=O)N1CCC[C@H]1C(=O)N[C@@H](CO)C(N)=O", "system": "human, control and renal impairment groups, plasma", "setting": "subcutaneous, 5 mg, range of group medians", "quantity": "tmax", "result": "48 to 60 h"}
{"SMILES": "Cn1cnc(Cn2c(=O)[nH]/c(=N\\c3cc4cn(C)nc4cc3Cl)n(Cc3cc(F)c(F)cc3F)c2=O)n1", "system": "healthy Japanese adults, plasma", "setting": "oral, 250 mg, day 5, multiple dosing, fasted, with: prednisolone", "quantity": "Cmax", "result": "52300 ng/mL"}
{"SMILES": "CC[C@H](C)[C@H](NC(=O)[C@H](CC(C)C)NC(=O)[C@H](Cc1c[nH]c2ccccc12)NC(=O)[C@H](CCC(N)=O)NC(=O)[C@@H](NC(=O)[C@H](Cc1ccccc1)NC(=O)[C@H](C)NC(=O)[C@H](CCCCNC(=O)COCCOCCNC(=O)COCCOCCNC(=O)CC[C@H](NC(=O)CCCCCCCCCCCCCCCCCCC(=O)O)C(=O)O)NC(=O)[C@H](CCC(N)=O)NC(=O)[C@H](C)NC(=O)[C@@H](NC(=O)[C@H](CCCCN)NC(=O)[C@H](CC(=O)O)NC(=O)[C@H](CC(C)C)NC(=O)C(C)(C)NC(=O)[C@@H](NC(=O)[C@H](CO)NC(=O)[C@H](Cc1ccc(O)cc1)NC(=O)[C@H](CC(=O)O)NC(=O)[C@H](CO)NC(=O)[C@@H](NC(=O)[C@H](Cc1ccccc1)NC(=O)[C@@H](NC(=O)CNC(=O)[C@H](CCC(=O)O)NC(=O)C(C)(C)NC(=O)[C@@H](N)Cc1ccc(O)cc1)[C@@H](C)O)[C@@H](C)O)[C@@H](C)CC)[C@@H](C)CC)C(C)C)C(=O)N[C@@H](C)C(=O)NCC(=O)NCC(=O)N1CCC[C@H]1C(=O)N[C@@H](CO)C(=O)N[C@@H](CO)C(=O)NCC(=O)N[C@@H](C)C(=O)N1CCC[C@H]1C(=O)N1CCC[C@H]1C(=O)N1CCC[C@H]1C(=O)N[C@@H](CO)C(N)=O", "system": "human, plasma", "setting": "sc, 5.0 mg once weekly, week 7, geometric mean", "quantity": "Vz/F", "result": "8 L"}
{"SMILES": "CC(C)(C)[C@H](NC(=O)C(F)(F)F)C(=O)N1C[C@H]2[C@@H]([C@H]1C(=O)N[C@H](C#N)C[C@@H]1CCNC1=O)C2(C)C", "system": "healthy humans, fasted, plasma", "setting": "oral, 1500 mg single dose", "quantity": "Cmax", "result": "1540 ng/mL"}
{"SMILES": "Cn1cnc(Cn2c(=O)[nH]/c(=N\\c3cc4cn(C)nc4cc3Cl)n(Cc3cc(F)c(F)cc3F)c2=O)n1", "system": "human, severe renal impairment", "setting": "oral, 375 mg", "quantity": "dry mouth TEAE, Severe severity", "result": "0%"}
{"SMILES": "CNC(=O)[C@@H](NC(=O)[C@H](CC(C)C)[C@H](O)C(=O)NO)C(C)(C)C", "tested on": "human fibrinogen", "assay": "SDS-PAGE", "system": "Daboia russelii", "setting": "concentration not given, unit not given, with: TN venom", "how to read": "relative to: untreated fibrinogen", "quantity": "remaining fibrinogen γ chain", "result": 0.251}
{"SMILES": "CC(C)C(=O)OC[C@H]1O[C@@H](n2ccc(NO)nc2=O)[C@H](O)[C@@H]1O", "system": "rat plasma", "setting": "100 µM, 1 h, with: loperamide 100 µM", "quantity": "remaining compound", "result": "0%"}
{"SMILES": "C[C@@H]1Cc2c(Cl)cc(C(=O)N[C@@H](Cc3ccccc3)C(=O)O)c(O)c2C(=O)O1", "system": "chicken embryo", "setting": "in ovo injection, 0.75 µg/egg", "quantity": "body weight to egg weight ratio", "result": "71.6 ± 4.2"}
{"SMILES": "CC[C@H](C)[C@H](NC(=O)[C@H](CC(C)C)NC(=O)[C@H](Cc1c[nH]c2ccccc12)NC(=O)[C@H](CCC(N)=O)NC(=O)[C@@H](NC(=O)[C@H](Cc1ccccc1)NC(=O)[C@H](C)NC(=O)[C@H](CCCCNC(=O)COCCOCCNC(=O)COCCOCCNC(=O)CC[C@H](NC(=O)CCCCCCCCCCCCCCCCCCC(=O)O)C(=O)O)NC(=O)[C@H](CCC(N)=O)NC(=O)[C@H](C)NC(=O)[C@@H](NC(=O)[C@H](CCCCN)NC(=O)[C@H](CC(=O)O)NC(=O)[C@H](CC(C)C)NC(=O)C(C)(C)NC(=O)[C@@H](NC(=O)[C@H](CO)NC(=O)[C@H](Cc1ccc(O)cc1)NC(=O)[C@H](CC(=O)O)NC(=O)[C@H](CO)NC(=O)[C@@H](NC(=O)[C@H](Cc1ccccc1)NC(=O)[C@@H](NC(=O)CNC(=O)[C@H](CCC(=O)O)NC(=O)C(C)(C)NC(=O)[C@@H](N)Cc1ccc(O)cc1)[C@@H](C)O)[C@@H](C)O)[C@@H](C)CC)[C@@H](C)CC)C(C)C)C(=O)N[C@@H](C)C(=O)NCC(=O)NCC(=O)N1CCC[C@H]1C(=O)N[C@@H](CO)C(=O)N[C@@H](CO)C(=O)NCC(=O)N[C@@H](C)C(=O)N1CCC[C@H]1C(=O)N1CCC[C@H]1C(=O)N1CCC[C@H]1C(=O)N[C@@H](CO)C(N)=O", "system": "healthy subjects, single ascending dose", "setting": "0.25 mg, titre ≥1:20", "quantity": "treatment-induced ADA positive subjects", "result": "0%"}
{"SMILES": "Cc1cc(C)c(CNC(=O)c2cc(Cl)c3c(c2C)O[C@@](C)([C@H]2CC[C@H](N(C)C)CC2)O3)c(=O)[nH]1", "system": "relapsed/refractory NHL patients", "setting": "oral, 200 mg once daily, onset after cycle 1 day 1", "quantity": "adverse event COVID-19", "result": "20.8%"}
{"SMILES": "Cc1cc(C)c(CNC(=O)c2cc(Cl)c3c(c2C)O[C@@](C)([C@H]2CC[C@H](N(C)C)CC2)O3)c(=O)[nH]1", "system": "relapsed/refractory NHL patients", "setting": "dose not given, trial, safety set, treatment-related TEAE grade 1 or 2", "quantity": "incidence of COVID-19 pneumonia", "result": "0%"}
{"SMILES": "Cc1cn([C@H]2O[C@@H](CO[P@@](=O)(N[C@@H](C)C(=O)OC(C)C)Oc3ccccc3)[C@H](O)[C@H]2F)c(=O)[nH]c1=O", "assay": "item: COVID-19 infection", "system": "human", "setting": "10 mg", "quantity": "patients with TEAE", "result": "0%"}
{"SMILES": "C[C@@H]1COCCN1c1cc(C2([S@](C)(=N)=O)CC2)nc(-c2cc[nH]c3nccc2-3)n1", "system": "Japanese advanced solid tumour patients", "setting": "oral, 160 mg twice daily, CTCAE grade ≥3", "quantity": "COVID-19 incidence", "result": "0%"}
{"note": "A few entries again:"}
{"SMILES": "Cc1cc(C)c(CNC(=O)c2cc(Cl)c3c(c2C)O[C@@](C)([C@H]2CC[C@H](N(C)C)CC2)O3)c(=O)[nH]1", "system": "relapsed/refractory NHL patients", "setting": "dose not given, trial, safety set, treatment-related TEAE grade 1 or 2", "quantity": "incidence of COVID-19 pneumonia", "result": "0%"}
{"SMILES": "Cc1cn([C@H]2O[C@@H](CO[P@@](=O)(N[C@@H](C)C(=O)OC(C)C)Oc3ccccc3)[C@H](O)[C@H]2F)c(=O)[nH]c1=O", "assay": "item: COVID-19 infection", "system": "human", "setting": "10 mg", "quantity": "patients with TEAE", "result": "0%"}
